# Published values gathered from unrelated publications.
# Compare with care: the assays were run in different laboratories. Values joined by “and” are separate records of one study, mostly repeats; a detail may differ. ± marks the error that the study gave.
SMILES,cell line,test,setting,how to read,endpoint,value
CNC(=O)Oc1cccc2ccccc12,SH-SY5Y,"neurite outgrowth inhibition, phase-contrast imaging",freely dissolved concentration,,EC10,28.7 nM
C=C(C)[C@H]1Cc2c(ccc3c2O[C@@H]2COc4cc(OC)c(OC)cc4[C@@H]2C3=O)O1,ReNcell VM neural progenitor cells,atomic force microscopy,"0.27 µM, 24 h",,decrease in elastic modulus,~80%
C/C=C(/C)C(=O)O[C@H]1C(C)=C2[C@H]([C@@H]1OC(=O)CCCCCCC)[C@@](C)(OC(C)=O)C[C@H](OC(=O)CCC)[C@@]1(O)[C@H]2OC(=O)[C@@]1(C)O,HEK-293T,"RNA-seq GSEA, refers to: Hallmark peroxisome","500 nM, 6 h",direction not given,normalized enrichment score,-1.03
CN1CCc2cc3c(cc2[C@H]1[C@@H]1OC(=O)c2c1ccc1c2OCO1)OCO3,hiPSC glutamatergic neurons,"burst frequency, multi-electrode array",2 h,,lowest effective concentration,100 µM
COc1c(CCC[P+](c2ccccc2)(c2ccccc2)c2ccccc2)cc2c(c1OC)OCO2.[I-],SF-268,SRB,,,LC50,-4.23 log M
CN1CC[C@@]2(C)c3cc(OC(=O)Nc4ccccc4)ccc3N(C)[C@@H]12,mouse primary cortical neurons,,up to 1 µM,,APP protein decrease,≤ 70%
Oc1ccc(C2(c3ccc(O)cc3)c3ccccc3-c3ccccc32)cc1,HepG2 spheroids,Hoechst flow cytometry,"10 µM, 96 h",,G1 phase cells,70.7 ± 3.4%
C[C@]12CC[C@H](O)C[C@H]1CC[C@@H]1[C@@H]2CC[C@]2(C)[C@@H](c3ccc(=O)oc3)CC[C@]12O,MCF7,"RT-qPCR, refers to: NRIP1","50 nM, 48 h, unit not given, added: estradiol",baseline: untreated,mRNA level,0.788 and 0.792 and 0.914
O=C(Nc1ccc2[nH]nc(-c3ccncc3)c2c1)[C@@H]1CCN(CC(=O)N2CCN(c3ccc(-c4ncccn4)cc3)CC2)C1,HCT116,IncuCyte,"concentration not given, 36 (unit not given)",,PI-positive cells,12.8 count and 11.7 count and 12 count
Nc1ncnc2c1ncn2[C@@H]1O[C@@H]2COP(=O)(O)O[C@H]3[C@@H](O)[C@H](n4cnc5c(=O)[nH]cnc54)O[C@@H]3COP(=O)(O)O[C@H]2[C@H]1O,HFF-1,"RNA sequencing, refers to: Reactome R-HSA-5083635",downregulated pathway,baseline: Zika virus alone,pathway fold enrichment,9.37
COc1cc(CCC[P+](c2ccccc2)(c2ccccc2)c2ccccc2)c(OC)c2c1OCO2.[I-],NCI-H460,SRB,,,TGI,-5.25 log M
CC1=C(O)C(=O)C=C2C1=CC=C1[C@@]2(C)CC[C@@]2(C)[C@@H]3C[C@](C)(C(=O)O)CC[C@]3(C)CC[C@]12C,MYBPC3 iPSC cardiomyocytes,plate-normalised,"concentration not given, 24 h, hit retest",,MyBP-C level,3.5%
O=c1c(O)c(-c2ccc(O)c(O)c2)oc2cc(O)cc(O)c12,"SH-SY5Y Aβ-GFP cells, TRKB shRNA",,5 µM,,neurite length,27.4 to 31.1 µm
N.N.[Cl][Pt][Cl],PEER,"cell proliferation, CellTiter-Glo","10 µM, 72 h",,inhibition,100%
CC(C)N1CCC(NC2CCN(c3cccc(-c4cc5cc(F)ccc5[nH]4)c3)CC2)CC1,RPMI-8226,,,,GI50,1840 nM
COc1c(C)c2c(c(O)c1C/C=C(\C)CCC(=O)O)C(=O)OC2,Squamous cancer cell lines,cell proliferation,,,IC50,282 nM
O=S(=O)(c1ccc(O)cc1)c1ccc(O)cc1,HepG2 spheroids,Hoechst flow cytometry,"10 µM, 24 h",,G2 phase cells,18.6 ± 3.76%
Nc1ncc(-c2nc(N3CCOCC3)nc(N3CCOCC3)n2)c(C(F)F)n1,J82,,72 h,,GI50,191 nM
Cc1c2ccncc2c(C)c2c1[nH]c1ccccc12,SH-SY5Y,SRB,,baseline: normal over SH-SY5Y IC50,selectivity index,0.78

# Some of these lines once more:
SMILES,cell line,test,setting,how to read,endpoint,value
CN1CC[C@@]2(C)c3cc(OC(=O)Nc4ccccc4)ccc3N(C)[C@@H]12,mouse primary cortical neurons,,up to 1 µM,,APP protein decrease,≤ 70%
COc1c(C)c2c(c(O)c1C/C=C(\C)CCC(=O)O)C(=O)OC2,Squamous cancer cell lines,cell proliferation,,,IC50,282 nM
Nc1ncnc2c1ncn2[C@@H]1O[C@@H]2COP(=O)(O)O[C@H]3[C@@H](O)[C@H](n4cnc5c(=O)[nH]cnc54)O[C@@H]3COP(=O)(O)O[C@H]2[C@H]1O,HFF-1,"RNA sequencing, refers to: Reactome R-HSA-5083635",downregulated pathway,baseline: Zika virus alone,pathway fold enrichment,9.37
